Assay results gathered from unrelated publications.
Numbered parts are unrelated; each lists some results of a single study. Substitutions count along the parent as printed.

Block 1
Target: Interferon regulatory factor 5, full length, phosphomimetic (IRF5, Homo sapiens, UniProt Q13568-2, residues 1-514, S451D/S453D/S456D/S462D)
Technique: protein-binding microarray
Molecule type: double-stranded DNA, one strand shown
Sample: in vitro
Tested at: 940 nM top
Notes: 60-bp whole probe
Added: salmon DNA 0.4 mg/ml
Relative to: random background probes
Direction: higher = stronger binding
All sequences stand within: GCCTAGCAC … GTCTTGATTCGCTTGACGCTGCTG
| Sequence | fitted relative affinity [z-score] |
| --- | --- |
| CTCTTTCTCTGCTACCCTTTGGTGCTA | 2.45 |
| AACGATATCAGTCTCGAGACGTGCTAG | 1.48 |
| TACGGTCTCGGACTGGGGACGTGCTAG | 0.704 |
| TTAGGTATCCTTCTCGTTTAGTGCTAG | 0.899 |
| TTAGGTTACGGTATCGGTTAGTGCTAG | 4.41 |
| GGGCCGAGGCTGTGGCCACCGTGCTAG | -1.05 |
| TTAGGTATCAGGTTTCGGTTAGTGCTA | 6.98 |
| GACGGTATCGGGACTGGGGACGTGCTA | 3.14 |
| TCAATTATCCTTGTCCCACTGTGCTAG | 0.564 |
| TTAGGTCTCGTTATCCTTTAGTGCTAG | 2.35 |
| GTTTTTTTTTAATTGAAATCGTGCTAG | -0.0696 |
| TCAAGAATCCCCTTCTAACTGTGCTAG | 0.372 |
| GCCGGTTCCCTTTTCCTGACGTGCTAG | 0.912 |
| TCAAGTTTCACTGCTGCACTGTGCTAG | 5.48 |
| TTAGATTTCGGGTATCGATGAGTGCTA | 2.82 |
| GACGGGCTCGGTATCGGGACGTGCTAG | 0.992 |
| GACCGTTCCCTTTTCCTGACGTGCTAG | 1.18 |

Block 2
Target: BATF3, bZIP domain (human)
Technique: DHFR protein complementation
Sample: yeast
Notes: single substitutions, most at no-binding floor
Relative to: wild-type JUN-FOS pair
Direction: higher = stronger binding
Starting sequence: JUN, bZIP domain (human); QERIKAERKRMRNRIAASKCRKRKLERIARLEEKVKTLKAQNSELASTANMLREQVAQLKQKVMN; partner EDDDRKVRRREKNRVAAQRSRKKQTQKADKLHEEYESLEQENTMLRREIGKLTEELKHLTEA
| Substitution | binding fitness [natural log] |
| --- | --- |
| V35M | 0.12 |
| M51V | 0.217 |
| R30N | 0.226 |
| L59G | 0.18 |
| E33I | 0.118 |
| I28T | 0.192 |
| R53I | -0.0455 |
| A46H | 0.153 |
| K39E | 0.162 |
| A57H | 0.127 |
| Q55P | -1.04 |
| K39F | 0.0103 |
| Q41S | -0.904 |
| L52R | -0.364 |
| L31T | 0.187 |
| R53K | 0.252 |
| E44Y | 0.137 |
| E54I | 0.186 |
| K34W | 0.316 |
| E32Q | 0.0841 |

Block 3
Target: CCNA1, cyclin fold, Cln2 fusion (human)
Technique: yeast growth competition, sequencing
Sample: yeast
Notes: weak parent motif
Relative to: not given
Direction: higher = stronger binding
Starting sequence: SCAPER docking peptide (human); SNARRSLNFGGST
| Substitution | normalised enrichment score |
| --- | --- |
| SNARRSLEFGGST [N8E] | 0.654 |
| SNARRSLYFGGST [N8Y] | 0.406 |
| SNARRSLNFGEST [G11E] | 0.551 |
| TNARRSLNFGGST [S1T] | 0.768 |
| SNARRSLNWGGST [F9W] | 0.983 |
| SNARRSLWFGGST [N8W] | 0.542 |
| SNARMSLNFGGST [R5M] | 0.548 |
| SNWRRSLNFGGST [A3W] | 0.382 |
| SNARQSLNFGGST [R5Q] | 0.315 |
| SNARRSCNFGGST [L7C] | 0.356 |
| SNARRSLNFGGSL [T13L] | 0.622 |
| SNARRSLNFGGFT [S12F] | 0.659 |
| SNARFSLNFGGST [R5F] | 0.514 |
| SNARRSLSFGGST [N8S] | 0.592 |
| SNARRCLNFGGST [S6C] | 0.747 |
| SNARRSLNFGGSD [T13D] | 1.04 |
| SNARRSLNEGGST [F9E] | 0.00804 |
| SNARRSLCFGGST [N8C] | 0.265 |
| SNARRSLNFGGNT [S12N] | 1.03 |

Other studies, line by line
| Molecule | target | assay | system | setting | how to read | measurement | result |
| --- | --- | --- | --- | --- | --- | --- | --- |
| PhoQ, residues 284 288 289 292 302 303 GASLAW | PhoP, residues 12 14 15 18 19 LYFRQ (Escherichia coli, UniProt P23836) | Sort-seq, item: YFP reporter | E. coli | PhoQ-PhoP variant library, added: 10 µM Mg2+ | relative to: high Mg2+ state, higher = stronger signaling | fold induction | 54.1 |

Some of these lines once more (block 2):
| Substitution | binding fitness [natural log] |
| --- | --- |
| K39F | 0.0103 |
| Q41S | -0.904 |
| L52R | -0.364 |
| L31T | 0.187 |
| R53K | 0.252 |
